Experimental data pooled from the literature.
Numbered parts are unrelated; each lists some results of a single study.
Sequence of UniProt P10721 (whole entry, unmodified, looked up): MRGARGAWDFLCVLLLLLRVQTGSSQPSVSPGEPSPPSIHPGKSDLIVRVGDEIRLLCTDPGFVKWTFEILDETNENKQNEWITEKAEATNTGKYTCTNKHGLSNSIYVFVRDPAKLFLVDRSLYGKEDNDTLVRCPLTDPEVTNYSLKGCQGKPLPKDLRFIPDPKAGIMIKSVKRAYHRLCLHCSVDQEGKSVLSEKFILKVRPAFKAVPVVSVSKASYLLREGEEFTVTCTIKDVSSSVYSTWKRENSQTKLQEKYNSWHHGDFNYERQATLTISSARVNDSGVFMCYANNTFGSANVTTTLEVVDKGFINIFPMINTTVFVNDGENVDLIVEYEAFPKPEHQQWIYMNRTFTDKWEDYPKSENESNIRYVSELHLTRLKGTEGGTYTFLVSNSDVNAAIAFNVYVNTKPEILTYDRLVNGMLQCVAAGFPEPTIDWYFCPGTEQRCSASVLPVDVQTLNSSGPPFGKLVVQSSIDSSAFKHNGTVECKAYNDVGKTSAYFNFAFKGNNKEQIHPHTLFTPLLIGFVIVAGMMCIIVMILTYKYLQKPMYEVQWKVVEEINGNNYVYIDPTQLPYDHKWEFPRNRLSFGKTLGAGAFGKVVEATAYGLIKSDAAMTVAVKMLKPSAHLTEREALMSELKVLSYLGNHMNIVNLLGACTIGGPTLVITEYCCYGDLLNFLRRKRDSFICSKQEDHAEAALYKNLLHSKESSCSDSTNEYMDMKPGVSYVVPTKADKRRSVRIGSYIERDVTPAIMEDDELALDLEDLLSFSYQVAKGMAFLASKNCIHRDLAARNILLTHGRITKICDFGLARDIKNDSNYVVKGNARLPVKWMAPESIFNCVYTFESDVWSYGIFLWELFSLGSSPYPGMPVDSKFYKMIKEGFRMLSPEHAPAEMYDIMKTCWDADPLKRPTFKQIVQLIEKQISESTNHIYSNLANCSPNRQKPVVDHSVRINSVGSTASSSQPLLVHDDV
Sequence of UniProt Q96G91 (whole entry, looked up): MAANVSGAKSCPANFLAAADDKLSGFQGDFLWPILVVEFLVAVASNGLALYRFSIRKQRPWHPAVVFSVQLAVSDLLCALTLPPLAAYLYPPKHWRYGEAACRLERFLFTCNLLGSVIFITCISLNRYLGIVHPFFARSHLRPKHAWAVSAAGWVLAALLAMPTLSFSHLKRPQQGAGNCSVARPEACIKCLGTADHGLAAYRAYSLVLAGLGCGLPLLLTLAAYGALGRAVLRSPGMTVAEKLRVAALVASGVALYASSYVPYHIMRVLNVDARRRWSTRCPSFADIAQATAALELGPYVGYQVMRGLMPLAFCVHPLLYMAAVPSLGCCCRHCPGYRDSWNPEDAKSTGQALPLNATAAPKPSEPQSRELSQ
Sequence of UniProt O75914 (whole entry, looked up): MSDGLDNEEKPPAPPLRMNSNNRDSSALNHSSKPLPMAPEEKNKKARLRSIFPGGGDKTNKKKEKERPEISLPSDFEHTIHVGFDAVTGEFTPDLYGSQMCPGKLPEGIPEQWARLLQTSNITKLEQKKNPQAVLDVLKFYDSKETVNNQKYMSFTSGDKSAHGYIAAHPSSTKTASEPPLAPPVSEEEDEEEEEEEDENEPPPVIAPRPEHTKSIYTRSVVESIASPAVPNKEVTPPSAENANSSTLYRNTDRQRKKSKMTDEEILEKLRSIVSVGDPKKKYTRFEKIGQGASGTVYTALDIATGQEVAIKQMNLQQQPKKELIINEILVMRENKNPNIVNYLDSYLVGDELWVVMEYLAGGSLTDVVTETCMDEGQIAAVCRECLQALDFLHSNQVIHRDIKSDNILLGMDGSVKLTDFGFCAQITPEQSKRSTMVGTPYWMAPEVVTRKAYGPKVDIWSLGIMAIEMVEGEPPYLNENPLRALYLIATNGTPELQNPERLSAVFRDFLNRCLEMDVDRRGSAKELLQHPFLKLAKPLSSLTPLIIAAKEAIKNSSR
Sequence of UniProt P11309 (whole entry, looked up): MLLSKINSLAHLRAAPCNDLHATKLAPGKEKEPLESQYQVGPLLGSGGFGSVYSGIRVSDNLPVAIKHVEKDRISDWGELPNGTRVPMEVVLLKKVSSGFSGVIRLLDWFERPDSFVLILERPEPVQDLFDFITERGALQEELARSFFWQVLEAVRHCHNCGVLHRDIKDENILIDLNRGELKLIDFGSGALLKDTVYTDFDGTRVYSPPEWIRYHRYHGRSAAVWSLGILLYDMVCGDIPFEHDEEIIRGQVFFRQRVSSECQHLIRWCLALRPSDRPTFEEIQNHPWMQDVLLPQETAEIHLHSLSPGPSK
Sequence of UniProt P07949 (whole entry, unmodified, looked up): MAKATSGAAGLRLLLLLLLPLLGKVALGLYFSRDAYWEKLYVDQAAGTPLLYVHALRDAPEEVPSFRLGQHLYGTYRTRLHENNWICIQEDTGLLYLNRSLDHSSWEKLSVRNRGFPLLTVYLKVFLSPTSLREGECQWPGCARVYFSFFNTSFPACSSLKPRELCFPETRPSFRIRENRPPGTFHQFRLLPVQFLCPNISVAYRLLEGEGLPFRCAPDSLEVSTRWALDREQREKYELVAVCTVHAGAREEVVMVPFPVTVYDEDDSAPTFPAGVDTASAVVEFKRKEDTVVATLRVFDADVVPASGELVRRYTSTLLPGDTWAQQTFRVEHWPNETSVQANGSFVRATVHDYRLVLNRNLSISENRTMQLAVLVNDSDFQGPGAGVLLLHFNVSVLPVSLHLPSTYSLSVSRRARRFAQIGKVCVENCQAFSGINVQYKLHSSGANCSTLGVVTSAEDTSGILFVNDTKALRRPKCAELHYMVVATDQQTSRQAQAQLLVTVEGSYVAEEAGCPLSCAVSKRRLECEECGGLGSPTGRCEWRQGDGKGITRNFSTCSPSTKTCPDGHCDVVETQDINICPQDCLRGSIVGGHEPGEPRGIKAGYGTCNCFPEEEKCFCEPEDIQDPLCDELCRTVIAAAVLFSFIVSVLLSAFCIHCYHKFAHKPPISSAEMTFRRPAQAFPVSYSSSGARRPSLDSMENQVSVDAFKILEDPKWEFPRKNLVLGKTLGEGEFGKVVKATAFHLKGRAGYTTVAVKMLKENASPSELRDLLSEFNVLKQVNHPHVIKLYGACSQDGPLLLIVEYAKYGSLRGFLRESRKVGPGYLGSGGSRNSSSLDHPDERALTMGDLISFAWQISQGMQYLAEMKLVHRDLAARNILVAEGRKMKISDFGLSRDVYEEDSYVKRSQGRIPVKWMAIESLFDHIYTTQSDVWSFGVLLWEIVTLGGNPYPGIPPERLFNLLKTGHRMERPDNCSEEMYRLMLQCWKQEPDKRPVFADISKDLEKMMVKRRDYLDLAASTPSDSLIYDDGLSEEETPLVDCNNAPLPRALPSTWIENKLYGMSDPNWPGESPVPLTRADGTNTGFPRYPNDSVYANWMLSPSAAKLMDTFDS
Sequence of UniProt Q9NS66 (whole entry, looked up): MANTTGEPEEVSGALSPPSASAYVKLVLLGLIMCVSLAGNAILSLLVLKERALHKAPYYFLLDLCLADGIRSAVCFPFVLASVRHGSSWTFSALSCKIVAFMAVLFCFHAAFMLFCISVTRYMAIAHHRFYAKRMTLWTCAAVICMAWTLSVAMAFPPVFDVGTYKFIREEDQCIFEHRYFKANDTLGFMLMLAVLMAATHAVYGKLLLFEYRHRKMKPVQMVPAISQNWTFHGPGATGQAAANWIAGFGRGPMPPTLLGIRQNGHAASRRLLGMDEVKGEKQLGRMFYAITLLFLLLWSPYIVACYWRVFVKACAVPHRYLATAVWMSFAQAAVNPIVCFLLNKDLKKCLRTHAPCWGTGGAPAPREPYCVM
Sequence of UniProt Q8WTQ7 (whole entry, looked up): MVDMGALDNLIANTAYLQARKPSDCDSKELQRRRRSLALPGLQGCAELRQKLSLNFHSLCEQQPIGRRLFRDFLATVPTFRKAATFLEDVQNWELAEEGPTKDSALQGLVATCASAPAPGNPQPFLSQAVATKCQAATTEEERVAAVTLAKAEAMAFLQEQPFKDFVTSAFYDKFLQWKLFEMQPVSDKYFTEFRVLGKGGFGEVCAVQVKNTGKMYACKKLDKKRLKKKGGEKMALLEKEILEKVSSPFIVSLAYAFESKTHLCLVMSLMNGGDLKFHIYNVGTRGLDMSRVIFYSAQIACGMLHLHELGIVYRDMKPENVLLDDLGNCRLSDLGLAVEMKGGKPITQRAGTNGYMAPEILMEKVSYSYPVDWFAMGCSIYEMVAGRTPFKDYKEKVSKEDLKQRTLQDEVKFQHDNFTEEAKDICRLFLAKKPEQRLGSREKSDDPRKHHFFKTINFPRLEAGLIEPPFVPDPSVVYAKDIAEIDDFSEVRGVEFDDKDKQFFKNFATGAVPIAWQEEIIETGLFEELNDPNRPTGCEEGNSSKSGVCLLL
Sequence of UniProt P25024 (whole entry, looked up): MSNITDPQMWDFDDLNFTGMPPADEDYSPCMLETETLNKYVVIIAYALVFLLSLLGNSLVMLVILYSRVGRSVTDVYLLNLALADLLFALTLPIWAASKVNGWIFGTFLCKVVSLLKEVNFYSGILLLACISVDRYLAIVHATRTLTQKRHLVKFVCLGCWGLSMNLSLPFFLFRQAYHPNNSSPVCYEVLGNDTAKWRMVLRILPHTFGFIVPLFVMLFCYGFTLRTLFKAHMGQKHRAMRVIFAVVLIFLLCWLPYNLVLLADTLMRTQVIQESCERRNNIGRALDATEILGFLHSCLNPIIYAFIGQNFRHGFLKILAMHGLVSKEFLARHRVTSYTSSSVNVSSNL
Sequence of UniProt P27361 (whole entry, looked up): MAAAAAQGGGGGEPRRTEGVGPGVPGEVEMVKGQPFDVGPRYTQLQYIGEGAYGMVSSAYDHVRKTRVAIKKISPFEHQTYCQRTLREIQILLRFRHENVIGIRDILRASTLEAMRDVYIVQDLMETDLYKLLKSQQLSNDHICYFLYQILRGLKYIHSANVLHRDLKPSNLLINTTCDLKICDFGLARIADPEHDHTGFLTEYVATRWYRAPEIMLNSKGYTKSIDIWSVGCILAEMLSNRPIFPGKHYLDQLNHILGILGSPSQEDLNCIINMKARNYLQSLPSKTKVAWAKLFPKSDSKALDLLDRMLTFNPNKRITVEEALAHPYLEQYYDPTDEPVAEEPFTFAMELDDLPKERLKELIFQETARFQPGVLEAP

Study 1
SMILES: COc1ccc2c(c1)O[C@@H](c1ccc(OC)c(OC)c1)C[C@H]2NC(=O)C1(c2ccc3c(c2)OC(F)(F)O3)CC1
Technique: competition with immobilised ligand
Tested at: 1 µM
| target | test | remaining binding |
| --- | --- | --- |
| MARK3 (Homo sapiens, UniProt P27448) | cell-free assay | 100% |
| PIM1 (Homo sapiens, UniProt P11309) | cell-free assay | 91% |
| RIPK2 (Homo sapiens, UniProt O43353) | cell-free assay | 94% |
| MAPK10 (Homo sapiens, UniProt P53779) | cell-free assay | 99% |
| CDKL1 (Homo sapiens, UniProt Q00532) | cell-free assay | 82% |
| KIT (Homo sapiens, UniProt P10721, T670I/V559D) | cell-free assay | 99% |
| Tyrosine-protein kinase ABL1, phosphorylated (ABL1, Homo sapiens, UniProt P00519, F317L) | cell-free assay | 76% |
| MAPK3 (Homo sapiens, UniProt P27361) | cell-free assay | 89% |
| SBK3 (Homo sapiens, UniProt P0C264) | cell-free assay | 100% |
| INSRR (Homo sapiens, UniProt P14616) | cell-free assay | 100% |
| GRK7 (Homo sapiens, UniProt Q8WTQ7) | cell-free assay | 100% |
| CDK16 (Homo sapiens, UniProt Q00536) | cell-free assay | 88% |
| PAK3 (Homo sapiens, UniProt O75914) | cell-free assay | 87% |
| PIP4K2B (Homo sapiens, UniProt P78356) | cell-free assay | 100% |
| MAP4K5 (Homo sapiens, UniProt Q9Y4K4) | cell-free assay | 100% |
| TNIK (Homo sapiens, UniProt Q9UKE5) | cell-free assay | 71% |
| RET (Homo sapiens, UniProt P07949, V804L) | cell-free assay | 95% |
| PRKACB (Homo sapiens, UniProt P22694) | cell-free assay | 95% |
| Mast/stem cell growth factor receptor Kit, autoinhibited (KIT, Homo sapiens, UniProt P10721) | cell-free assay | 88% |
| TXK (Homo sapiens, UniProt P42681) | binding | 97% |
| STK32C (Homo sapiens, UniProt Q86UX6) | cell-free assay | 100% |
| MAST1 (Homo sapiens, UniProt Q9Y2H9) | cell-free assay | 100% |

Study 2
Target: Diamine acetyltransferase 1 (Homo sapiens, UniProt P21673)
Mode: inhibitor
Tested at: 10 µM
Relative to: control
Construct (P21673 1-171): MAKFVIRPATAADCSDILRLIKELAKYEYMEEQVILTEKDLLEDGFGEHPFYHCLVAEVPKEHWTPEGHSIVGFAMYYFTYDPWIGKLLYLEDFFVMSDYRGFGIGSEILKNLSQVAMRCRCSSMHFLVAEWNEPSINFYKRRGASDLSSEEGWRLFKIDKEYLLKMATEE
| SMILES | remaining activity [%] |
| --- | --- |
| Cc1cc(C(C)(C)C)c(O)c(C(C)(C)C)c1 | 105 |
| CCCCCCCCCCCCCCCCC(=O)O | 98.4 |
| CCCCCCO | 91 |
| COc1c(CC=C(C)C)c(O)cc2oc(=O)c3c4ccc(O)cc4oc3c12 | 102 |
| O=C1C[C@@H](c2ccc(O[C@@H]3O[C@H](CO)[C@@H](O)[C@H](O)[C@H]3O[C@@H]3OC[C@](O)(CO)[C@H]3O)cc2)Oc2cc(O)ccc21 | 88.5 |
| C=C(C)[C@H]1CC[C@H](C)C[C@@H]1O | 90.7 |
| CC(=O)c1ccc(O)c(O)c1 | 102 |
| COc1c(-c2ccccc2)oc2cc(O)cc(O)c2c1=O | 83.9 |
| C[C@H]1[C@H](C)CC[C@]2(CO)CC[C@]3(C)C(=CC[C@@H]4[C@@]5(C)CC[C@H](O)C(C)(C)[C@@H]5CC[C@]43C)[C@H]12 | 105 |
| Oc1cc(O)cc(CCc2ccccc2)c1 | 93 |

Study 3
Cell line: HaCaT
Tested at: 100 µM
Time: 18 h
| Compound | viability |
| --- | --- |
| CC1=C(/C=C/C(C)=C/C=C/C(C)=C/CO)C(C)(C)CCC1 | 78.7% |
| O=C(O)CCCc1ccccc1 | 116% |
| CCN(CC)CCOCCOC(=O)C(CC)(CC)c1ccccc1 | 112% |
| CO/N=C1\C[C@]2(C[C@@H]3C[C@@H](C/C=C(\C)C[C@@H](C)/C=C/C=C4\CO[C@@H]5[C@H](O)C(C)=C[C@@H](C(=O)O3)[C@]45O)O2)O[C@H](/C(C)=C/C(C)C)[C@H]1C | 19.2% |
| O=C(O)c1cc(-c2ccccc2)nc2ccccc12 | 80.1% |
| O=c1[nH]c(=O)n([C@H]2C[C@H](O)[C@@H](CO)O2)cc1F | 45.5% |
| Cc1cccn2c(=O)c(-c3nnn[nH]3)cnc12 | 99.2% |
| Cc1nc2n(c(=O)c1CCN1CCC(c3noc4cc(F)ccc34)CC1)CCCC2O (centres unmarked) | 112% |
| Cc1ccc(C(=O)C(C)CN2CCCCC2)cc1 (centres unmarked) | 107% |
| N=C(N)c1ccc(/N=N/Nc2ccc(C(=N)N)cc2)cc1 | 120% |
| CCCCC1=NC2(CCCC2)C(=O)N1Cc1ccc(-c2ccccc2-c2nnn[nH]2)cc1 | 100% |
| CCCCC(=O)O[C@]1(C(=O)CO)[C@@H](C)C[C@H]2[C@@H]3CCC4=CC(=O)C=C[C@]4(C)[C@@]3(F)[C@@H](O)C[C@@]21C | 38.5% |
| Cc1cn[nH]c1 | 94.8% |
| CCCCC(=O)O[C@]1(C(=O)CO)CC[C@H]2[C@@H]3CCC4=CC(=O)CC[C@]4(C)[C@H]3[C@@H](O)C[C@@]21C | 84.5% |
| O[C@H]1[C@H](O)[C@@H](O)[C@H](O)[C@@H](O)[C@H]1O | 113% |

Study 4
Compound: CC(C)CN(C)c1nc(N)c(C(=O)N=C(N)N)nc1Cl
Read-out: β-arrestin recruitment
Mode: agonist
Technique: PRESTO-Tango
Tested at: 10 µM
Relative to: untreated
| target | fold over basal |
| --- | --- |
| Probable G-protein coupled receptor 160 (GPR160, Homo sapiens, UniProt Q9UJ42) | 0.76 |
| Adhesion G-protein coupled receptor F3 (ADGRF3, Homo sapiens, UniProt Q8IZF5) | 1.68 |
| N-formyl peptide receptor 3 (Homo sapiens, UniProt P25089) | 0.48 fold |
| P2Y purinoceptor 11 (P2RY11, Homo sapiens, UniProt Q96G91) | 1.35 |
| G-protein coupled receptor 61 (GPR61, Homo sapiens, UniProt Q9BZJ8) | 0.73 |
| Probable G-protein coupled receptor 173 (GPR173, Homo sapiens, UniProt Q9NS66) | 1.09 |
| Calcitonin receptor, isoform b (CALCR, Homo sapiens, UniProt P30988) | 0.81 |
| NTSR1 (Homo sapiens, UniProt P30989) | 1.03 |
| CXCR1 (Homo sapiens, UniProt P25024) | 0.93 |
| 12-(S)-hydroxy-5,8,10,14-eicosatetraenoic acid receptor (GPR31, Homo sapiens, UniProt O00270) | 0.62 |
| NPFFR1 (Homo sapiens, UniProt Q9GZQ6) | 0.72 |
| Adhesion G-protein coupled receptor D1 (ADGRD1, Homo sapiens, UniProt Q6QNK2) | 0.78 |
| G-protein coupled receptor family C group 5 member B (GPRC5B, Homo sapiens, UniProt Q9NZH0) | 0.85 |
| CCR3 (Homo sapiens, UniProt P51677) | 0.87 |
| CHRM4 (Homo sapiens, UniProt P08173) | 0.68 |

Some of these lines once more (study 4):
| target | fold over basal |
| --- | --- |
| CXCR1 (Homo sapiens, UniProt P25024) | 0.93 |
| N-formyl peptide receptor 3 (Homo sapiens, UniProt P25089) | 0.48 fold |
| Adhesion G-protein coupled receptor D1 (ADGRD1, Homo sapiens, UniProt Q6QNK2) | 0.78 |
| Probable G-protein coupled receptor 160 (GPR160, Homo sapiens, UniProt Q9UJ42) | 0.76 |
